# Experimental data gathered from unrelated publications.
# A part holds a random share of what one study measured.

# Series 1
# Target: Phosphate system positive regulatory protein PHO4, full length, GST-tagged (PHO4, Saccharomyces cerevisiae, UniProt P07270, residues 1-312)
# Method: competition protein-binding microarray
# Form: double-stranded DNA, one strand shown
# Medium: in vitro
# Concentration: 2 µM
# Notes: whole 60-bp probe, lowest competitor level
# Together with: Cbf1 competitor, 0.05 µM
# Direction: higher = stronger binding
# Constant ends, left off below: … GTCTTGATTCGCTTGACGCTGCTG
# Construct (chain): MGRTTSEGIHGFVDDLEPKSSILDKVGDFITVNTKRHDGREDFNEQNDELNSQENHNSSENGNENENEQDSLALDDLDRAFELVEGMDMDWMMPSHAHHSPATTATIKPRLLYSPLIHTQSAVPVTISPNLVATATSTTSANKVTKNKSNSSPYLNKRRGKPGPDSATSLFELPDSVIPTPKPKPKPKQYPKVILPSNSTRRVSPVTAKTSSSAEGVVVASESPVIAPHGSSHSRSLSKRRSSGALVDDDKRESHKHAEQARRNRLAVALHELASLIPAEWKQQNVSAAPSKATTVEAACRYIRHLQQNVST
Sequence,fluorescence intensity
CAATAGCAGCGGCGGCATGATCTTGAGTCGAATAGA,5350 a.u.
CCAAAAGCGTCATTCCACGTGGACCCGCTTAGTTTA,16000 a.u.
TACCAGGTCTTTTAGCACGCTGAACATAATACACAG,7730 a.u.
AAATTACTAAGTTGTCCCGTGGGTGACGCCGTATGA,8540 a.u.
CATCTTCTTACATCGCACGTGATGGTAAACTAGTAA,21100 a.u.
CAGTTCATTTACTTCCACGTGTAGATGTGAAGGAAT,17300 a.u.
GCCGCCGCTTCTCCACACGTGCACTCGGGTCTCTCG,17600 a.u.
GTCTTGTCTCATTTTCACGTGATATTCCCCACTTCA,12000 a.u.

# Series 2
# Target: TAR DNA-binding protein 43, full length, His tag (TARDBP, Homo sapiens, UniProt Q13148, residues 1-414)
# Method: RNA Bind-n-Seq
# Form: RNA
# Medium: in vitro
# Concentration: 20 nM
# Notes: 6-mer, flanks averaged, single round
# Together with: 150 mM LiCl
# Relative to: input library
# Direction: higher = stronger binding
Sequence,6-mer enrichment (R)
CGGACG,1.02
GGAGGA,1.15
GAUAAU,0.902
GUGUGU,3.19
CGGUAU,0.978
CCGCCG,0.94
UCGGGU,1
UGGCUC,0.926

# Series 3
# Target: Prothrombin, mature alpha-thrombin (F2, Homo sapiens, UniProt P00734)
# Method: aptamer microarray, sandwich
# Form: DNA with 2'F-ANA
# Medium: in vitro
# Concentration: 200 nM
# Notes: whole 15-mer aptamer, many near background
# Together with: Cy3 exosite-II aptamer, 400 nM
# Direction: higher = stronger binding
# Sequence: GGTTGGTGTGGTTGG
Modification,mean fluorescence intensity
2'F-ANA at 1 2 3 4 5 8 9 10 13,46.5 a.u.
2'F-ANA at 1 3 5 6 7 9 10 11 15,94.2 a.u.
2'F-ANA at 1 2 3 5 10 12 13 14 15,51 a.u.
2'F-ANA at 4 5 8 12 14,45.4 a.u.
2'F-ANA at 2 3 4 6 7 9 10 11 14,432 a.u.
2'F-ANA at 1 7 8 9 11,190 a.u.
2'F-ANA at 1 2 3 5 13 15,52.1 a.u.
2'F-ANA at 1 5 8 9 12 13 15,82 a.u.

# Single results of other studies
Molecule,target,assay,system,conditions,endpoint,result
FMYALSRAF,"HLA class I histocompatibility antigen, C alpha chain, allele C*04:01 (Homo sapiens, UniProt P10321)",peptide-MHC binding,peptide,concentration not given,binding,inactive

# Some of these lines once more (series 1):
Sequence,fluorescence intensity
TACCAGGTCTTTTAGCACGCTGAACATAATACACAG,7730 a.u.
AAATTACTAAGTTGTCCCGTGGGTGACGCCGTATGA,8540 a.u.
CATCTTCTTACATCGCACGTGATGGTAAACTAGTAA,21100 a.u.
CAGTTCATTTACTTCCACGTGTAGATGTGAAGGAAT,17300 a.u.
